# Published values pooled from the literature.
# Lines come from different studies, so protocols differ.
# TDP1: Tyrosyl-DNA phosphodiesterase 1 (TDP1, Homo sapiens, UniProt Q9NUW8)
# UniProt Q9NUW8, sequence (whole entry, looked up): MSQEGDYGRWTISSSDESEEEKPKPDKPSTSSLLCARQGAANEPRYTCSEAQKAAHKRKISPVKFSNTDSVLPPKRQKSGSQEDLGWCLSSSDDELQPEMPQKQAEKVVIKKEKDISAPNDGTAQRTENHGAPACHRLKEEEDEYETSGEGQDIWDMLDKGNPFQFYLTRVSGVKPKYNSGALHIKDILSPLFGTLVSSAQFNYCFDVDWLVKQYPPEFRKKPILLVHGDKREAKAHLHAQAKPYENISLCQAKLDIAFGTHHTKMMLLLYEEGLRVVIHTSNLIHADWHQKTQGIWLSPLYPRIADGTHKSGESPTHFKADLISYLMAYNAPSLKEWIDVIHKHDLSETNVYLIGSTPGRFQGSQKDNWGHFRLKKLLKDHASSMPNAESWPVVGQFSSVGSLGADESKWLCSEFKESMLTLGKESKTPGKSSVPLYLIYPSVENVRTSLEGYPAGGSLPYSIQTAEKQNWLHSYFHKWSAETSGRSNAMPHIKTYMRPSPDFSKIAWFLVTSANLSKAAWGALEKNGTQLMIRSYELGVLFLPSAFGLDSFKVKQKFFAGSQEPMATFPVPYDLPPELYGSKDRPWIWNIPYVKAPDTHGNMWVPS
SMILES,target or system,assay,system,conditions,scale,measurement,result
CN1CCC(N[C@H]2CCc3[nH]c4c(C(N)=O)ccc(-c5ccccc5Cl)c4c3C2)CC1,"K562/DOX, doxorubicin-resistant","cell growth, CellTiter-Glo",,96 h,,IC50,765 nM
O=C(NCC(F)(F)F)c1cccc(N2Cc3cn(Cc4ccc(F)cc4)nc3C2)c1,HEK293 expressing GluA1 and GluA2,"glutamate excitotoxic cell death, CellTox Green",,added: glutamate,,IC50,28 nM
Cn1ncc(-c2ccc3c(=O)[nH]nc(CN)c3c2)c1-c1c(F)c(Cl)cc(OC2CC2)c1C#N,DOHH-2,"cell viability, inhibitor, CellTiter-Glo",,"120 h, baseline-subtracted",,IC50,60 nM
CCOc1cncc(-c2ccc(NC(=O)C3(c4ccnc(NS(=O)(=O)C5CC5)n4)CCOCC3)nc2)n1,Capan-2,"cell growth or viability, ATP luminescence",,72 h,,IC50,91 nM
CC(C)c1ccc(N(C)c2ccc3c(c2)OCC[C@H]3CNc2cnccc2C(=O)O)cc1,CAL-27,cell viability,,7 days,,IC50,≥ 10000 nM
O=C(O)c1ccc(Nc2c(-c3ccc(CON=Cc4cc(Br)c5c(c4)CCO5)cc3)nc3cc(-c4ccccc4)ccn23)cc1,TDP1,"enzyme activity, inhibitor",,"100 µM, unpurified compound",,inhibition,66.7%
N#Cc1cncc(N2Cc3cn(Cc4ccc(F)cc4)nc3C2)n1,HEK293 expressing GluA1 and GluA2,"glutamate excitotoxic cell death, CellTox Green",,added: glutamate,,IC50,771 nM
CNS(=O)(=O)Nc1nccc(Cc2c(C)c3ccc(Oc4ncccc4F)cc3oc2=O)c1F,HS852T,"cell viability, CellTiter-Glo",,7 days,,IC50,296 nM
Cc1ncsc1-c1ccc(C(C)NC(=O)C2CC(O)CN2C(=O)C(NC(=O)CCCCCCCCCCN2CCCC(Nc3ncc(Cl)c(Nc4ccccc4S(=O)(=O)C(C)C)n3)C2)C(C)(C)C)cc1 (stereo not shown),22Rv1,"RNA-seq, item: ZNF862 mRNA",,concentration not given,relative to: DMSO,log2 fold change,-2.38
O=C(c1ccnc(N2Cc3cn(Cc4ccc(F)cc4)nc3C2)n1)N1CCCCC1,HEK293 expressing GluA1 and GluA2,"glutamate excitotoxic cell death, CellTox Green",,added: glutamate,,IC50,2.4 nM
COC1CN([C@H]2CC[C@H]([C@@]3(C)Oc4c(Cl)cc(C(=O)NCc5c(SC)cc(C)[nH]c5=O)c(C)c4O3)CC2)C1,,"RNA-seq, item: MECOM","human, whole blood","dose not given, 24 h",relative to: pretreatment baseline,log2 fold change,7.09
NC(=O)c1ccc(-c2ccccc2Cl)c2c3c([nH]c12)CCC(N)C3 (stereo not shown),"MCF7/PTX, paclitaxel-resistant","cell growth, CellTiter-Glo",,96 h,,IC50,19.9 nM
O=C(O)c1ccc(Nc2c(-c3ccc(CON=Cc4cccc5cccnc45)cc3)nc3cc(-c4ccccc4)ccn23)cc1,TDP1,"enzyme activity, inhibitor",,100 µM,,inhibition,32.5%

# Some of these lines once more:
SMILES,target or system,assay,system,conditions,scale,measurement,result
O=C(O)c1ccc(Nc2c(-c3ccc(CON=Cc4cccc5cccnc45)cc3)nc3cc(-c4ccccc4)ccn23)cc1,TDP1,"enzyme activity, inhibitor",,100 µM,,inhibition,32.5%
